Measured values of several laboratories.
Every numbered part comes from another study and shows a few of its results, in no order. Positions count from the first letter of the parent shown.

Block 1
Target: Histone acetyltransferase KAT6A, both winged helices, GST fusion (KAT6A, Homo sapiens, UniProt Q92794, residues 1-181)
Technique: protein binding microarray
Form: double-stranded DNA, one strand shown
Medium: in vitro
Tested at: not given
Setting: 8-mer, flanks averaged, mean of 2 arrays, mostly near background
Relative to: not given
Direction: higher = stronger binding
Target sequence (chain): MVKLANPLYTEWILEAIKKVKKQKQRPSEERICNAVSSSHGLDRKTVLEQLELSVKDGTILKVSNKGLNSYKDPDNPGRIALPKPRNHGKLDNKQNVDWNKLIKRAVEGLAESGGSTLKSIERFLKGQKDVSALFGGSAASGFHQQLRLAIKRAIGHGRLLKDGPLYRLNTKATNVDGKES
`ATGACCAA` gave an E-score of -0.0484.
The E-score of `CCCTATCG` is reported as -0.0294.
`AAATACTA` has an E-score of -0.11.
`ATATTTCA` has an E-score of -0.178.
`GCGAACAC` gave an E-score of 0.0798.
`ATTGCAAC` has an E-score of -0.077.
`TGACTCAA` gave an E-score of -0.0646.
`AGCGTCTC` gave an E-score of 0.129.
For `TGTTCGAA`, the E-score was 0.0129.
`ACTAACTC` gave an E-score of -0.196.
`ACATTTTG` gave an E-score of -0.15.
With `CCGGGCTA` the E-score was 0.164.
With `ATATTCCG` the E-score was 0.138.
The E-score of `AATTTTTA` is reported as -0.0276.
The E-score of `AGAAGCAA` is reported as -0.174.
`ATCAGGAA` has an E-score of -0.139.
For `CGGTGTGC`, the E-score was 0.136.
The E-score of `CCCACTCA` is reported as -0.24.
With `ATCCCTTC` the E-score was -0.158.
With `CCCTAACC` the E-score was -0.0205.
For `CGGATCCG`, the E-score was 0.293.
With `CGAGTGGA` the E-score was -0.144.

Block 2
Target: Ras GTPase-activating protein-binding protein 1, full length (G3BP1, Homo sapiens, UniProt Q13283)
Chain of UniProt Q13283 (whole entry, looked up): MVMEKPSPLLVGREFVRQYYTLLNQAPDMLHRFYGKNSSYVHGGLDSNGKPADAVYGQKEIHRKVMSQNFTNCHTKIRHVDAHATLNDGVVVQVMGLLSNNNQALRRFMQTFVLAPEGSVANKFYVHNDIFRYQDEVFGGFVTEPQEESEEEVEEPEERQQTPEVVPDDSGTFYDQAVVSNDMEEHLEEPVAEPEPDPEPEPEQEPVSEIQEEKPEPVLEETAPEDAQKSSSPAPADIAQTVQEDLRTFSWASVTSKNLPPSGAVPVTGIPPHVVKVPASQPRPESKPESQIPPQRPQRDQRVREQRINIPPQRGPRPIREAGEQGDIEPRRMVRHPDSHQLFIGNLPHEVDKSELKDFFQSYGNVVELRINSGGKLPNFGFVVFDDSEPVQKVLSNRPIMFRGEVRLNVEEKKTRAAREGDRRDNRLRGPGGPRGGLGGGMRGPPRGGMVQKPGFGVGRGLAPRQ
Technique: RNA Bind-n-Seq
Form: RNA
Medium: in vitro
Tested at: 200 nM
Setting: whole 134-nt RNA, ends assumed
Added: 150 mM LiCl
Relative to: input library
Direction: higher = stronger binding
Each molecule: 7-deaza-guanosine replaces G
`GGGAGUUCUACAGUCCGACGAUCCCUGUGCUACACAUCGUAUGUACCGAAUCGGGGAGGGGAAAAAAAGGGGUUUUUUUGGGGAAAGUAUUAUGUUACGCCGUUCGGAUCUGCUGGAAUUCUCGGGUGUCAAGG` gave a log2 enrichment of 0.464.
The log2 enrichment of `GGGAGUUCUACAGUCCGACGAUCUCAAGUCCUGUGCUACACAUCGUAUGUACCGAAUCGGUUUGGGUUUGGGGUUUGGAAAGUAUUAUGUUACGCCGUUCGGAUCUGCACUUCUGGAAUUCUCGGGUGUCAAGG` is reported as -0.799.
`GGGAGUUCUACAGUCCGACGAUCCUCAAGUCCUGUGCUACACAUCGUAUGUACCGAAUCGGGGUUGGGUUGGUUGGGAAAGUAUUAUGUUACGCCGUUCGGAUCUGCACUUCCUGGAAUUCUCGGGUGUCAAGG` gave a log2 enrichment of 0.376.
For `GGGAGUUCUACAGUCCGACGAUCGCCACCAUGCCCACCUAGUUUUUGCAUUUUUAGUGGAGGUGUGGUUUCACUGUGUUGGCCAGGCUGGUCUCUUAACUCCUGACCUCAGGUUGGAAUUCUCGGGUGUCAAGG`, the log2 enrichment was -0.454.
With `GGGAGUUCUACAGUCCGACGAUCUGUUGGGCUUCGAUCCCAGGUGGAUGAUGAUGCCUUCCUACAUGGACCCACGUAUCACGCCCACUCGGACCCCGGUGGACUUCUACCCCUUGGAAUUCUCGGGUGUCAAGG` the log2 enrichment was -0.84.
The log2 enrichment of `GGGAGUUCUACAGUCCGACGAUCUAACUUUAGACGAGGAUCUGAUGGAUAUGGCAGUGGACGUGGAUUUGGGGAUGGCUAUAAUGGGUAUGGAGGAGGACCUGGAGGUGGCAAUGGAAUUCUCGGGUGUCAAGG` is reported as -0.174.
The log2 enrichment of `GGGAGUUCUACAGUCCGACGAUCCUCAAGUCCUGUGCUACACAUCGUAUGUACCGAAUCGGGGCCGGGGCCGGCCGGAAAGUAUUAUGUUACGCCGUUCGGAUCUGCACUUCCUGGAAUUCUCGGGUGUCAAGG` is reported as 0.286.
For `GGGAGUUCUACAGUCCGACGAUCCUCAAGUCCUGUGCUACACAUCGUAUGUACCGAAUCGGGAGGGUUUGGGAGGGAAAGUAUUAUGUUACGCCGUUCGGAUCUGCACUUCCAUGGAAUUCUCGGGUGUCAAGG`, the log2 enrichment was 0.0193.

Block 3
Target: CCND2, cyclin fold, Cln2 fusion (human)
Technique: yeast growth competition, sequencing
Medium: yeast
Setting: weak parent motif
Relative to: not given
Direction: higher = stronger binding
Starting sequence: FOXM1 docking peptide (human); PHLARPIKVESPP; partner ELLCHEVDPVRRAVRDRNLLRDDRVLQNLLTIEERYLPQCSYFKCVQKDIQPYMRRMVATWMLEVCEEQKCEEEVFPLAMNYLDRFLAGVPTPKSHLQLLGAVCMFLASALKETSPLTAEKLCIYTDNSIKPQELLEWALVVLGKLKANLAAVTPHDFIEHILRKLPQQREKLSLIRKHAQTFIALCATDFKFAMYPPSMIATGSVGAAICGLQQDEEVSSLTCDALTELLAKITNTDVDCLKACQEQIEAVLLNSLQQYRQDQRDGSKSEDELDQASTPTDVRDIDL
`PHLARPIKVESPA [P13A]`: “normalised enrichment score” -0.0761.
`PALARPIKVESPP [H2A]`: “normalised enrichment score” -0.248.
`PHLARPAKVESPP [I7A]`: “normalised enrichment score” -0.1.
`PHAARPIKVESPP [L3A]`: “normalised enrichment score” 0.248.
`AHLARPIKVESPP [P1A]` — result for “normalised enrichment score”: -0.122.
Under “normalised enrichment score”, `PHLARPIKVEAPP [S11A]` is recorded as -0.168.

Block 4
Target: RING finger protein unkempt homolog, zinc fingers 1-6, GST-SBP tag (UNK, Homo sapiens, UniProt Q9C0B0, residues 30-357)
Chain of UniProt Q9C0B0 (30-357, looked up): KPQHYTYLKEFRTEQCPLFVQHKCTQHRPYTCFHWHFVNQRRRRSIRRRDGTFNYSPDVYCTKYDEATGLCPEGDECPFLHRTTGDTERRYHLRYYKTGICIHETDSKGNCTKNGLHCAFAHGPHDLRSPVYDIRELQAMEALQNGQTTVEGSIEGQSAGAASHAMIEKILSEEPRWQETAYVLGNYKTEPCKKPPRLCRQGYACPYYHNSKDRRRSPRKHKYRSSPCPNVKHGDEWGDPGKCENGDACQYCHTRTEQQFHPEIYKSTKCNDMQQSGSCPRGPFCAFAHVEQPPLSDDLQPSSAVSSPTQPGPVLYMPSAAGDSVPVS
Technique: RNA Bind-n-Seq
Form: RNA
Medium: in vitro
Tested at: not given
Setting: RNA with constant flanks, human-mouse chimeric sites, ends assumed
Relative to: input RNA pool
Direction: higher = stronger binding
For `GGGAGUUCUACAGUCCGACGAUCCACAGAGCAGCACCUACCCCCUCCUCCUUUCCACACCUGCAAACUCUUUUGCCUGGGCUGAAUAUUUAGUGUAAUUACAUCUCAGCUUUGAGGGCUCCUGUGGCAAAUUCCCGGAUUAAACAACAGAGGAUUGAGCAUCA`, the bound/input enrichment was 0.621 ratio.
With `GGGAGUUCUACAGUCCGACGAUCUUACCCGAGAACGAGGAUGAGCUGGAGAGCACCAACAGGCGCUACACCAAGAGGGACUGCAGCACUUUUCUCAGAACUAGUGAGACGGGCAUCGUGGACCAGGUCAUGGUAACUCUCAACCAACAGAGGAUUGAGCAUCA` the bound/input enrichment was 0.12 ratio.
`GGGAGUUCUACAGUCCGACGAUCACCUCCCCCUCCCGCCUCACCCCACCCAAGAAAGAAAGAAAGUUUUUGGCGUUUCUUUUCCUUCCCCAUACAAAGUGAUUACAGUUUCCCCCGCAAGGGUCUAUCGAUUCACCCUUCGGACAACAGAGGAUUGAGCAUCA` has a bound/input enrichment of 0.862 ratio.
With `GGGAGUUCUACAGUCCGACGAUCCUGAGGAUACCACUGAAAGAGACAUUAAAGAAUCAUUUGAGGGCUCUGUUCGUGCAAGAAUAGUCACUGAUCGGGAAAACUGGGUCCCCAAAGGGUUUGGUUUUGUAGACUUUAAUAGUGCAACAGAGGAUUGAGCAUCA` the bound/input enrichment was 0.411 ratio.
For `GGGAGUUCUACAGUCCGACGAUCUCGGAUGAGGUGCUGGGUCACUUUCCGUAUCCAGAUCCUUCACAGUGGACAGAUGAAGAACUGGGAAUCCCUCCUGAUGACGAGGACUGACACUGUAAACUCUCUGGACGAGUAGGAGCACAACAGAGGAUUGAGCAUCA`, the bound/input enrichment was 0.651 ratio.
With `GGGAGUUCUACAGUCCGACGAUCAGAUUCCCCCUCCUGAGGCCUUCUCCAAAGUUGGAGUCUCUUACAGAUGGUUCAUCUCCUGUUAGCGUUUUAGUUUGGACCACCCAGCCUUGGACAAUUCCCGCCAACCAGGCAAUUUGCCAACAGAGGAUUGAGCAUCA` the bound/input enrichment was 1.27 ratio.
`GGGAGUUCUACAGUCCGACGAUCGCGGCAGAAUCAUGGAGGACAUGAUGGAGCUCCCCAAAGCGCGCGUCAACGCCAGCAUGUUACCACAGUAUAUCGACAAGCCUGUCUGCUUCGUGGGGAAGCUGGAAAAGAUUCAUCCCACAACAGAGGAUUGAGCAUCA` has a bound/input enrichment of 0.141 ratio.
`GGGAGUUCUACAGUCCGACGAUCGGCCUGGGACCGUCCUGGGCUAGUACAAAUAGCGGCAGUGGAGGCUCGAGAGGAAAGUUGUUAGUGGGAGGCAGUGGAGAGGUCGUCCAUGUACGGUCCUUUACUCGAUAGAUGUGUUCUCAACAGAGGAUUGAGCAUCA` gave a bound/input enrichment of 0.506 ratio.

Repeated from above (block 1):
`AGCGTCTC` gave an E-score of 0.129.
The E-score of `AATTTTTA` is reported as -0.0276.
`AAATACTA` has an E-score of -0.11.
